Assay results collected from several papers.
Every numbered part comes from another study and shows a few of its results, in no order.
UniProt Q15208, sequence (whole entry, looked up): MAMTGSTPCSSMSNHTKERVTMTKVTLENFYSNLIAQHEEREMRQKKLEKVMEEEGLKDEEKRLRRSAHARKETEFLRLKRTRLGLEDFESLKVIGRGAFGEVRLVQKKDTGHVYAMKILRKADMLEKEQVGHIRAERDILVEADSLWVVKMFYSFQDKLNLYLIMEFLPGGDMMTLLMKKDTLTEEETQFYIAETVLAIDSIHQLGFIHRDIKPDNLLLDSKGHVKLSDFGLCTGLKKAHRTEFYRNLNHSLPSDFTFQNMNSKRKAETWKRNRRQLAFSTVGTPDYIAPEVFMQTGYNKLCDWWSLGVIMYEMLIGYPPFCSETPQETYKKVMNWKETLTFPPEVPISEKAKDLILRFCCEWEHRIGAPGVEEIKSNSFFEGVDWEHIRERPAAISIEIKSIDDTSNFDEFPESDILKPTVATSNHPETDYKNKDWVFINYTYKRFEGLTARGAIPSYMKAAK
UniProt O94768, sequence (whole entry, looked up): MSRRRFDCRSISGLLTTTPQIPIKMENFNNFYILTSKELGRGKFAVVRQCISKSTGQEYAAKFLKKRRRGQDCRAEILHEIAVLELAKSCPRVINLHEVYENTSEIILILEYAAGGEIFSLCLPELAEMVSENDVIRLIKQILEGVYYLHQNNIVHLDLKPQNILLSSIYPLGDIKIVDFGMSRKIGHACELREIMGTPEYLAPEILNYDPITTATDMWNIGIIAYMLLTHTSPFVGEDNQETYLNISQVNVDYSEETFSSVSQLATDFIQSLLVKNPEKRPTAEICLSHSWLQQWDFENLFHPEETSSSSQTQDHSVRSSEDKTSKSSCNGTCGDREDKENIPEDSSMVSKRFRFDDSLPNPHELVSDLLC
UniProt O75385, sequence (whole entry, looked up): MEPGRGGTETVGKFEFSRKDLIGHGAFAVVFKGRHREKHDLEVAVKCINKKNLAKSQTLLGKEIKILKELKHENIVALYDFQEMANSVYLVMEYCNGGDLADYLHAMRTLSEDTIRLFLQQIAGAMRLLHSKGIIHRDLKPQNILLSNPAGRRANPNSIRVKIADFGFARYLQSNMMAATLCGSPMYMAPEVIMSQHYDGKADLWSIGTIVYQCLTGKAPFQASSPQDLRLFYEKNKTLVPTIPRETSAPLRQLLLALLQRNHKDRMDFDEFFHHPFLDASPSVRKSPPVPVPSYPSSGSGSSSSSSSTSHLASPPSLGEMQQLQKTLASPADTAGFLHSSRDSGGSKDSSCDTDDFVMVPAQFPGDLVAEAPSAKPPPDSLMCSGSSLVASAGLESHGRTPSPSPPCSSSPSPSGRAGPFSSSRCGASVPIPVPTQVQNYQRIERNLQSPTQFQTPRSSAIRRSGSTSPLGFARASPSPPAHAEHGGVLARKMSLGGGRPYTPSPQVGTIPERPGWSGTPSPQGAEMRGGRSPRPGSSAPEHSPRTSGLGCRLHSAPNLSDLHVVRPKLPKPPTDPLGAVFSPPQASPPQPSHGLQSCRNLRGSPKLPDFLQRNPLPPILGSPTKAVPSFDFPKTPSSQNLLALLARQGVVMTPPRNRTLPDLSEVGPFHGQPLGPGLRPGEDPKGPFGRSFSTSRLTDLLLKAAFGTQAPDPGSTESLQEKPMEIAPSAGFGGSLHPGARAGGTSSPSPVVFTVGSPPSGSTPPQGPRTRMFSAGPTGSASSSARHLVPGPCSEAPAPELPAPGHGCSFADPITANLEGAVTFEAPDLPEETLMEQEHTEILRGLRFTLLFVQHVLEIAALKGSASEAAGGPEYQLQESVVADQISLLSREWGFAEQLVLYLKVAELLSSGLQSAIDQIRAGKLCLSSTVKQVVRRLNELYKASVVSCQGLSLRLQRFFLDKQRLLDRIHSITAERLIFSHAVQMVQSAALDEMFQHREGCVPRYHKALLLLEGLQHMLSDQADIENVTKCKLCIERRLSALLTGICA
UniProt Q9Y616, sequence (whole entry, looked up): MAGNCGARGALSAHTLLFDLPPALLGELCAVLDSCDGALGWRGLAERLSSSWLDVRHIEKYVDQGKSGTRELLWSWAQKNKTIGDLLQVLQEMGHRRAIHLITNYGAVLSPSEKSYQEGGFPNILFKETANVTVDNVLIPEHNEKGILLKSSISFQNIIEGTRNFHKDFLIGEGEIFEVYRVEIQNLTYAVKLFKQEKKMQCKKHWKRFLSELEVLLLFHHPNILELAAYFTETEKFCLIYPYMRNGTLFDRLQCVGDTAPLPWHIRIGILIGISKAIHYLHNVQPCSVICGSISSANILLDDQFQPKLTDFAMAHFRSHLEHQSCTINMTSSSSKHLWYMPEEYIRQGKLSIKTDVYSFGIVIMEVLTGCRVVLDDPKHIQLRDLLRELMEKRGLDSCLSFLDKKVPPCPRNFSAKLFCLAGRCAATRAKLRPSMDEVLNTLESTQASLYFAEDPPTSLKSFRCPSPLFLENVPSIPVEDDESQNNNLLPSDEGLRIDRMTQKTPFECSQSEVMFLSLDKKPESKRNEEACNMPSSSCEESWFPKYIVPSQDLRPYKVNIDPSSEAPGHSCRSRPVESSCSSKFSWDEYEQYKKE
UniProt Q07002, sequence (whole entry, looked up): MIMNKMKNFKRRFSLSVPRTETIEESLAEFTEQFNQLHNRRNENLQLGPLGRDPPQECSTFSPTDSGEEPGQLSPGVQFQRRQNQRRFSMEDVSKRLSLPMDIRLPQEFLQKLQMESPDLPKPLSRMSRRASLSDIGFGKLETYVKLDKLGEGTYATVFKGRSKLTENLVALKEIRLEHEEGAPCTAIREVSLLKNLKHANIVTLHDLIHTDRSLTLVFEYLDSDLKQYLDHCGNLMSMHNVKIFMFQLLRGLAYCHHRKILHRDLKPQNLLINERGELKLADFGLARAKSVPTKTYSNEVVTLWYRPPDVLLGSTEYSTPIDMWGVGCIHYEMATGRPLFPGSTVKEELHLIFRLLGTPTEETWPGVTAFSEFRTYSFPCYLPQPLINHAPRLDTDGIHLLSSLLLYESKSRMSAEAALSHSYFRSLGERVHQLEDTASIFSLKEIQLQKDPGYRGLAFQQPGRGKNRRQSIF

Sample 1
Target: Bromodomain-containing protein 4, BD1 (BRD4, Homo sapiens, UniProt O60885)
Tested at: 50 µM
With `C=CCn1c(=O)c2cnc(Nc3ccc(N4CCN(C)CC4)cc3)nc2n1-c1cccc(C(C)(C)O)n1` the inhibition was 12.4%.
For `CCc1cnn2c(NCc3ccc[n+]([O-])c3)cc(N3CCCC[C@H]3CCO)nc12`, the inhibition was 16.9%.
For `Cn1cnc2c(F)c(Nc3ccc(Br)cc3F)c(C(=O)NOCCO)cc21`, the inhibition was 1.65%.
The inhibition of `COc1cc2ncnc(Nc3ccc(F)c(Cl)c3)c2cc1NC(=O)/C=C/CN1CCCCC1` is reported as 52.2%.
For `NS(=O)(=O)c1ccc(NN=C2C(=O)Nc3ccc(Br)cc32)cc1`, the inhibition was 19.4%.
With `COc1cc2ncn(-c3cc(OCc4ccccc4C(F)(F)F)c(C(N)=O)s3)c2cc1OC` the inhibition was 8.6%.
`C[C@@H]1CCN(C(=O)CC#N)C[C@@H]1N(C)c1ncnc2[nH]ccc12` has an inhibition of -10.4%.

Sample 2
Compound: O=C(NCCCC1CCCCC1)c1ccc(CNC(=O)c2cnn(-c3ccccc3)c2C(F)(F)F)cc1
Effect on: cell-free assay
Technique: competition with immobilised ligand
Tested at: 0.1 µM
It gave 100% for remaining binding (MAP4K1 (Homo sapiens, UniProt Q92918)).
The remaining binding was 100% (ERBB2 (Homo sapiens, UniProt P04626)).
FER (Homo sapiens, UniProt P16591) — remaining binding: 98%.
The remaining binding was 97% (WEE1 (Homo sapiens, UniProt P30291)).
The remaining binding was 100% (SRPK3 (Homo sapiens, UniProt Q9UPE1)).
The remaining binding was 100% (IRAK3 (Homo sapiens, UniProt Q9Y616)).
KIT (Homo sapiens, UniProt P10721, L576P) — remaining binding: 100%.
Tyrosine-protein kinase ABL1, non-phosphorylated (ABL1, Homo sapiens, UniProt P00519, T315I) — remaining binding: 80%.
For ULK1 (Homo sapiens, UniProt O75385): remaining binding read 100%.
The remaining binding was 100% (CLK2 (Homo sapiens, UniProt P49760)).
It gave 100% for remaining binding (PRKCD (Homo sapiens, UniProt Q05655)).
For STK17B (Homo sapiens, UniProt O94768): remaining binding read 100%.
For PTK2 (Homo sapiens, UniProt Q05397): remaining binding read 100%.
For Ribosomal protein S6 kinase alpha-5, C-terminal kinase domain (RPS6KA5, Homo sapiens, UniProt O75582): remaining binding read 82%.
The remaining binding was 100% (MAP3K11 (Homo sapiens, UniProt Q16584)).
ERBB3 (Homo sapiens, UniProt P21860) — remaining binding: 100%.
It gave 95% for remaining binding (SGK2 (Homo sapiens, UniProt Q9HBY8)).
It gave 100% for remaining binding (STK16 (Homo sapiens, UniProt O75716)).
It gave 100% for remaining binding (CDK18 (Homo sapiens, UniProt Q07002)).
For CSNK1E (Homo sapiens, UniProt P49674): remaining binding read 100%.
For PIK3CD (Homo sapiens, UniProt O00329): remaining binding read 100%.
For STK38 (Homo sapiens, UniProt Q15208): remaining binding read 93%.
For MAPKAPK2 (Homo sapiens, UniProt P49137): remaining binding read 100%.
The remaining binding was 100% (MAP2K3 (Homo sapiens, UniProt P46734)).
MAP4K2 (Homo sapiens, UniProt Q12851) — remaining binding: 100%.

Sample 3
Target: Interleukin-1 receptor-associated kinase 1 (IRAK1, Homo sapiens, UniProt P51617)
UniProt P51617, sequence (whole entry, looked up): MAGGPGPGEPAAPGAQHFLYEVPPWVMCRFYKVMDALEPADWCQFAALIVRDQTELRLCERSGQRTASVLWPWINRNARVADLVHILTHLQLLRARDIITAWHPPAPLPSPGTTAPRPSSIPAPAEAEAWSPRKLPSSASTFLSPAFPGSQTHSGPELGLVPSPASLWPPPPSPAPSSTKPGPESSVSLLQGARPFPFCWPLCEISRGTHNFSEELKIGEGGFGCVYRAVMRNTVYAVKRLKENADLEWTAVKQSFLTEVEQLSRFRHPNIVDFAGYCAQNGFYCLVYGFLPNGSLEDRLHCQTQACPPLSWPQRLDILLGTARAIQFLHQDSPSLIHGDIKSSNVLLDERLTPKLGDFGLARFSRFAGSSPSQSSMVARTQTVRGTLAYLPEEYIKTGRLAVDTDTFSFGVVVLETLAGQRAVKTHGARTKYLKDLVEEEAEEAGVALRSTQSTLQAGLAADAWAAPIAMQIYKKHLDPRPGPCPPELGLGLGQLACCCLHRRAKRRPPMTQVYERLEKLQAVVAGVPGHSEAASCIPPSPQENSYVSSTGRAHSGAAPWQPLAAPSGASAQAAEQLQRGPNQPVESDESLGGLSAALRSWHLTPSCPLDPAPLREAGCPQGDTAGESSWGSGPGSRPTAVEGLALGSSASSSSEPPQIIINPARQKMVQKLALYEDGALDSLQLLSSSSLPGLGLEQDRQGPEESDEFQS
Effect on: enzyme activity
Mode: inhibitor
Tested at: 0.5 µM
Relative to: control
The remaining activity of `N#Cc1cnc2cnc(NCc3cccnc3)cc2c1Nc1ccc(F)c(Cl)c1` is reported as 114%.
With `O=C1NC(=O)c2c1c1c3ccccc3[nH]c1n1cncc21` the remaining activity was 83.1%.
With `c1ccc2c(-c3ccncc3)c[nH]c2c1` the remaining activity was 127%.
For `COc1cccc(-c2cc(=O)c3ccccc3o2)c1N`, the remaining activity was 98.8%.
With `CN(C)S(=O)(=O)c1ccc2c(c1)/C(=C/c1cc3c([nH]1)CCCC3)C(=O)N2` the remaining activity was 5.59%.
`Cc1cc(Nc2cc(N3CCN(C)CC3)nc(Sc3ccc(NC(=O)C4CC4)cc3)n2)[nH]n1` has a remaining activity of 91.5%.
`O=C1Cc2c([nH]c3ccc(Br)cc23)-c2ccccc2N1` gave a remaining activity of 98.6%.
For `O=Nc1c(-c2c(O)[nH]c3cc(Br)ccc23)[nH]c2ccccc12`, the remaining activity was 103%.
For `O=C1Nc2ccc(Br)cc2/C1=C/c1cc2c([nH]1)CCCC2`, the remaining activity was 97%.
The remaining activity of `O=C1NC(=O)c2c1c1c3ccccc3[nH]c1c1[nH]c3cc(Br)ccc3c21` is reported as 81.8%.
`O=c1cc(N2CCOCC2)oc2c(-c3ccccc3)cccc12` gave a remaining activity of 104%.
For `CCCNC(=O)Nc1ccc(Oc2ncnc3cc(OC)c(OC)cc23)cc1Cl`, the remaining activity was 106%.
The remaining activity of `Cc1ccc(S(=O)(=O)/C=C/C#N)cc1` is reported as 103%.
`O=C1Nc2ccccc2/C1=C\c1c(Cl)[nH]c2ccccc12` has a remaining activity of 89.5%.
For `CCCCc1c(-c2ccc(OC)cc2)[nH]c2nccnc12`, the remaining activity was 64.3%.
`COc1ccc2c(c1)c(C1=C(c3c[nH]c4ccccc34)C(=O)NC1=O)cn2CCCN(C)C` has a remaining activity of 89%.
The remaining activity of `O=C(c1cc2cc(O)ccc2[nH]1)c1cc2cc(O)ccc2[nH]1` is reported as 98.1%.

Sample 4
SMILES: COc1cc(C(=O)N2CCC(N3CCN(C)CC3)CC2)ccc1Nc1ncc2c(n1)N(C)c1ccccc1C(=O)N2C
For p70S6K/p70S6Kb (mouse); probe labelling, inhibitor, KiNativ ActivX ATP probe; mouse brain lysate; 0.1 µM: inhibition read -10.7%.
PIP4K2C (mouse); probe labelling, KiNativ, item: ATP site peptide; brain tissue lysate (mouse); 0.1 µM, together with: ATP acyl-phosphate probe — inhibition: 7.5%.
human PBMC; probe labeling, inhibitor, KiNativ profiling, item: DIkPDNLLLDSK; cell lysate; concentration not given, LYS2 site, together with: ATP acyl-phosphate probe — inhibition: -2.3%.
PIP4K2C (mouse); probe labelling, KiNativ, item: VKELPTLkDMDFLNK peptide, ATP site; brain tissue lysate (mouse); 0.1 µM, together with: ATP acyl-phosphate probe — inhibition: -2.5%.
It gave 5.6% for inhibition (ZC1/HGK (mouse); probe labelling, KiNativ, item: LYS1 site peptide; brain tissue lysate (mouse); 0.1 µM, together with: ATP acyl-phosphate probe).
It gave 21.8% for inhibition (mouse PIP5K3; probe labelling, KiNativ ADP probe; mouse brain lysate; 0.1 µM, ATP site).
ABL and ARG (mouse); probe labelling, KiNativ, item: Lys1 site peptide; brain tissue lysate (mouse); 0.1 µM, together with: ATP acyl-phosphate probe — inhibition: 7.9%.
The inhibition was -3.6% (human PBMC; probe labeling, inhibitor, KiNativ profiling, item: APVAIkVFK; cell lysate; concentration not given, LYS1 site, together with: ATP acyl-phosphate probe).
The inhibition was -25.3% (RSKL1 domain 1 (mouse); probe labelling, inhibitor, KiNativ ActivX ADP probe; mouse brain lysate; 0.1 µM).
NIM1 (mouse); probe labelling, KiNativ ATP probe; mouse brain lysate; 1 µM, LYS1 labelled site — inhibition: -12.2%.
TRKB (mouse); probe labelling, inhibitor, KiNativ ActivX ATP probe; mouse brain lysate; 1 µM, Lys1 site peptide — inhibition: -25.5%.

A few entries again (sample 4):
TRKB (mouse); probe labelling, inhibitor, KiNativ ActivX ATP probe; mouse brain lysate; 1 µM, Lys1 site peptide — inhibition: -25.5%.
The inhibition was -25.3% (RSKL1 domain 1 (mouse); probe labelling, inhibitor, KiNativ ActivX ADP probe; mouse brain lysate; 0.1 µM).
NIM1 (mouse); probe labelling, KiNativ ATP probe; mouse brain lysate; 1 µM, LYS1 labelled site — inhibition: -12.2%.
PIP4K2C (mouse); probe labelling, KiNativ, item: VKELPTLkDMDFLNK peptide, ATP site; brain tissue lysate (mouse); 0.1 µM, together with: ATP acyl-phosphate probe — inhibition: -2.5%.
It gave 21.8% for inhibition (mouse PIP5K3; probe labelling, KiNativ ADP probe; mouse brain lysate; 0.1 µM, ATP site).
human PBMC; probe labeling, inhibitor, KiNativ profiling, item: DIkPDNLLLDSK; cell lysate; concentration not given, LYS2 site, together with: ATP acyl-phosphate probe — inhibition: -2.3%.
PIP4K2C (mouse); probe labelling, KiNativ, item: ATP site peptide; brain tissue lysate (mouse); 0.1 µM, together with: ATP acyl-phosphate probe — inhibition: 7.5%.
ABL and ARG (mouse); probe labelling, KiNativ, item: Lys1 site peptide; brain tissue lysate (mouse); 0.1 µM, together with: ATP acyl-phosphate probe — inhibition: 7.9%.
For p70S6K/p70S6Kb (mouse); probe labelling, inhibitor, KiNativ ActivX ATP probe; mouse brain lysate; 0.1 µM: inhibition read -10.7%.
The inhibition was -3.6% (human PBMC; probe labeling, inhibitor, KiNativ profiling, item: APVAIkVFK; cell lysate; concentration not given, LYS1 site, together with: ATP acyl-phosphate probe).
